Results of several laboratories.
Protocols differ between the studies behind these lines. Several values in a cell are separate wells, animals, samples, runs or records. Numbers after ± are the reported error.

CC(C)C[C@H](NC(=O)[C@H](CC(=O)O)NC(=O)CNC(=O)[C@@H](N)CCCNC(=N)N)C(=O)N[C@@H](C)C(=O)N[C@H](C(=O)N[C@@H](CC(C)C)C(=O)N[C@@H](CCCNC(=N)N)C(=O)N[C@@H](CCC(N)=O)C(=O)N[C@@H](CC(C)C)C(=O)N[C@@H](C)C(=O)N[C@@H](CCC(N)=O)C(=O)N[C@@H](CCC(=O)O)C(=O)N[C@@H](CC(=O)O)C(=O)NCC(=O)N[C@H](C(=O)N[C@H](C(=O)NCC(=O)N[C@H](C(=O)N[C@@H](CCCNC(=N)N)C(=O)NCCOCCOCCOCCOCCOCCOCCOCCOCCOCCOCCOCCOCCC(=O)N[C@@H](CS)C(N)=O)C(C)C)C(C)C)C(C)C)[C@@H](C)O  selectivity ratio (H1666 lung adenocarcinoma; cell binding, phage binding, refers to: output/input phage; 10 min, 37 °C; baseline: control phage): 34 ± 10
C=CCN1C(=O)C(CC=C)(C(=O)OCC)Oc2cc(F)ccc21 (stereo not drawn)  inhibition (HEK293T; cytotoxicity, CCK-8; 0.78 µM, 72 h): 0%
Cc1cccc(-c2cccc(C)n2)n1.Cc1cccc(-c2cccc(C)n2)n1.F[P-](F)(F)(F)(F)F.F[P-](F)(F)(F)(F)F.[Ru+2].c1ccc2c(-c3nc4c5cccnc5c5ncccc5c4[nH]3)cccc2c1  phototoxicity index (SK-MEL-28; normoxia, together with: green light 523 nm, 100 J/cm2; baseline: dark over light EC50): 2
CSCC[C@H](NC(=O)[C@H](CC(C)C)NC(=O)[C@H](CCC(N)=O)NC(=O)[C@H](C)NC(=O)[C@H](Cc1c[nH]c2ccccc12)NC(=O)[C@H](Cc1ccc(O)cc1)NC(=O)[C@H](CCC(=O)O)NC(=O)[C@H](CC(C)C)NC(=O)[C@H](Cc1ccccc1)NC(=O)[C@@H](NC(=O)[C@H](CC(C)C)NC(=O)[C@H](CCCCN)NC(C)=O)[C@@H](C)O)C(=O)N[C@@H](CCC(N)=O)C(=O)N[C@@H](CCCCN)C(=O)NCCCCCC(=O)N[C@@H](CCCCN)C(=O)N[C@@H](CC(C)C)C(=O)N[C@H](C(=O)N[C@@H](Cc1ccccc1)C(=O)N[C@@H](CC(C)C)C(=O)N[C@@]1(C)CCCC=CCCC[C@@](C)(C(=O)N[C@@H](CC(C)C)C(=O)N[C@@H](CCSC)C(=O)N[C@@H](CCC(N)=O)C(=O)N[C@@H](CCCCN)C(N)=O)NC(=O)[C@H](C)NC(=O)[C@H](Cc2c[nH]c3ccccc23)NC(=O)[C@H](Cc2ccc(O)cc2)NC1=O)[C@@H](C)O  inhibition (human tumour cells; cell growth, CCK-8; 16 µM): inhibited
[Cl-].[Cl-].[Ru+2].c1ccc(-c2ccccn2)nc1.c1ccc(-c2ccccn2)nc1.c1ccc2cc3nc4c5cccnc5c5ncccc5c4nc3cc2c1  phototoxicity index (SK-MEL-28; normoxia, together with: blue light 453 nm, 100 J/cm2; baseline: dark over light EC50): 1150
COc1ccc2c(c1)c(CC(=O)[Se]CC(=O)Nc1cccc(C(F)(F)F)c1)c(C)n2C(=O)c1ccc(Cl)cc1  CC50 (NCI60 ovarian subpanel; cytotoxicity, inhibitor; five-dose): 9.05 µM
CC[C@H](C)[C@H](NC(=O)[C@H](C)NC(=O)CNC(=O)[C@H](Cc1ccccc1)NC(=O)[C@H](CC(N)=O)NC(=O)[C@H](CC(N)=O)NC(=O)[C@H](CO)NC(=O)[C@H](CO)NC(=O)[C@H](Cc1c[nH]cn1)NC(=O)[C@@H](NC(=O)[C@H](CC(C)C)NC(=O)[C@H](Cc1ccccc1)NC(=O)[C@H](CC(N)=O)NC(=O)[C@H](C)NC(=O)[C@H](CC(C)C)NC(=O)[C@H](CCCNC(=N)N)NC(=O)[C@H](CCC(N)=O)NC(=O)[C@@H](NC(=O)[C@H](C)NC(=O)[C@@H]1CSSC[C@H](NC(=O)[C@@H](N)CCCCN)C(=O)N[C@@H](CC(N)=O)C(=O)N[C@@H]([C@@H](C)O)C(=O)N[C@@H](C)C(=O)N[C@@H]([C@@H](C)O)C(=O)N1)[C@@H](C)O)C(C)C)C(=O)N[C@@H](CC(C)C)C(=O)N[C@@H](CO)C(=O)N[C@@H](CO)C(=O)N[C@H](C(=O)N[C@@H](CC(N)=O)C(=O)N[C@H](C(=O)NCC(=O)N[C@@H](CO)C(=O)N[C@@H](CC(N)=O)C(=O)N[C@H](C(=O)N[C@@H](Cc1ccc(O)cc1)C(N)=O)[C@@H](C)O)C(C)C)[C@@H](C)O  Pearson colocalization coefficient (RIN-m5F; colocalization microscopy, refers to: ubiquitin (P4D1); 10 µM, 24 h): > 0.6
CC(=O)NCSC[C@H](NC(=O)[C@@H]1CCCN1C(=O)[C@H](C)NC(=O)[C@@H](NC(=O)CNC(=O)[C@@H](NC(=O)[C@H](Cc1c[nH]c2ccccc12)NC(=O)[C@H](C)NC(=O)CNC(=O)[C@H](CO)NC(=O)[C@H](C)NC(=O)[C@@H]1CCCN1C(=O)[C@H](Cc1c[nH]c2ccccc12)NC(=O)[C@H](C)NC(=O)[C@H](C)NC(=O)[C@@H](N)Cc1ccc(O)cc1)[C@@H](C)O)[C@@H](C)O)C(=O)N[C@@H](CO)C(=O)N[C@@H](C)C(=O)NCC(=O)N[C@H](C(=O)NCCOCCOCCOCCOCCOCCOCCOCCOCCOCCOCCOCCOCCC(=O)N[C@@H](CS)C(N)=O)[C@@H](C)O  selectivity ratio (H1650 lung adenocarcinoma; cell binding, phage binding, refers to: output/input phage; 10 min, 37 °C; baseline: control phage): 2 ± 0.3
NC(=O)N/N=C/c1ccc(OCc2ccccc2)cc1  catalase activity (OD450) (IMR-32; 200 µg/mL, 24 h; higher = more activity): 0.191 a.u.
O=C(C[Se]C(=O)c1ccc2ccccc2n1)Nc1cccc(C(F)(F)F)c1  CC50 (NCI60 ovarian subpanel; cytotoxicity, inhibitor; five-dose): 9.42 µM
C#CCN1C(=O)C(CC#C)(C(=O)OCC)Oc2ccccc21 (stereo not drawn)  inhibition (HEK293T; cytotoxicity, CCK-8; 100 µM, 72 h): 1 ± 0.28%
O=C(C[Se]C(=O)c1cccnc1Nc1cccc(C(F)(F)F)c1)Nc1cccc(C(F)(F)F)c1  CC50 (NCI60 ovarian subpanel; cytotoxicity, inhibitor; five-dose): 8.95 µM
Cc1cc(Oc2nc(N3CC[C@@H](c4ccncc4)C3)ncc2F)[nH]n1  IC50 (NCI-H82; cell proliferation; lung cancer): 74.1 µM
O=C(C[Se]C(=O)c1cccs1)Nc1cccc(C(F)(F)F)c1  GI50 (NCI60 NSCLC subpanel; NCI60 five-dose screen): 1.62 µM
CC(C)CC(O)(CC(C)C)c1cn(C(=O)N2CCCC2)nn1  protein level (mouse T-cells; SILAC proteomics, refers to: Efhd2; 1 nM, 6 h, single peptides, unit not given; baseline: DMSO): 0.89 and 1.09
COc1ccccc1-c1ccncc1C(=O)Nc1nnc(OCc2ccc(Cl)cc2)s1  colony survival (HCT116 BRCA2-/-; 0.06 µM, average of 3 runs; baseline: untreated): 79.7%
O=C(C[Se]C(=O)c1ccco1)Nc1cccc(C(F)(F)F)c1  CC50 (NCI60 prostate subpanel (PC-3, DU-145); cytotoxicity, inhibitor; five-dose): 53.8 µM
O=C(O)c1ccc(-c2nc(-c3ccccc3Cl)c3sccn23)cc1  CD61 fluorescence intensity (K562; megakaryocyte differentiation, flow cytometry; 0.01 mM, 24 h; baseline: untreated): 1.01 fold change and 1.04 fold change
O=c1n(CCNCCOS(=O)(=O)c2ccccc2)c(=O)n(S(=O)(=O)c2ccccc2)c(=O)n1S(=O)(=O)c1ccccc1  viability (A549; cell growth or viability, MTT; 50 µg/mL, 24 h): 47.7%
NC(=S)N/N=C/c1ccc(OCc2ccccc2)cc1  catalase activity (OD450) (IMR-32; 400 µg/mL, 24 h; higher = more activity): 0.067 a.u.
CC(C)[C@H](NC(=O)[C@H](CCCNC(=N)N)NC(=O)[C@@H]1CCCN1C(=O)[C@@H](NC(=O)[C@H](C)NC(=O)[C@H](Cc1ccc(O)cc1)NC(=O)[C@H](CCC(N)=O)NC(=O)[C@H](CCCCN)NC(=O)[C@H](CCCNC(=N)N)NC(=O)[C@@H]1CCCN1C(=O)[C@H](CCC(=O)O)NC(=O)[C@@H](NC(=O)[C@H](C)N)[C@@H](C)O)[C@@H](C)O)C(=O)N[C@@H](Cc1ccccc1)C(=O)N[C@@H](Cc1c[nH]c2ccccc12)C(=O)N[C@H](C(=O)N[C@@H](CC(=O)O)C(=O)N[C@@H](C)C(=O)N1CCC[C@H]1C(=O)NCC(=O)NCCOCCOCCOCCOCCOCCOCCOCCOCCOCCOCCOCCOCCC(=O)N[C@@H](CS)C(N)=O)[C@@H](C)O  selectivity ratio (H322; phage binding; 10 min, 37 °C; baseline: control phage): 3.8 ± 1.1
CC(=O)Oc1ccccc1C(=O)[Se]CC(=O)Nc1cccc(C(F)(F)F)c1  CC50 (NCI60 prostate subpanel (PC-3, DU-145); cytotoxicity, inhibitor; five-dose): 54.6 µM
CCOC(=O)C1(Cc2ccccc2)Oc2cc(F)ccc2N(Cc2ccccc2)C1=O (stereo not drawn)  inhibition (HEK293T; cytotoxicity, CCK-8; 3.13 µM, 72 h): 0.15 ± 0.3%
O=C(C[Se]C(=O)c1ccccc1)Nc1cccc(C(F)(F)F)c1  GI50 (NCI60 NSCLC subpanel; NCI60 five-dose screen): 2.28 µM
CSCC[C@H](NC(=O)[C@@H](NC(=O)[C@H](CCC(N)=O)NC(=O)[C@H](CO)NC(=O)[C@@H](N)C(C)C)[C@@H](C)O)C(=O)N[C@@H](CCCNC(=N)N)C(=O)N[C@@H](CCC(N)=O)C(=O)N[C@H](C(=O)N[C@@H](C)C(=O)N[C@H](C(=O)N1CCC[C@H]1C(=O)N[C@@H](CC(C)C)C(=O)N[C@@H](CC(C)C)C(=O)N[C@@H](Cc1c[nH]c2ccccc12)C(=O)N[C@@H](Cc1ccccc1)C(=O)N[C@@H](Cc1c[nH]c2ccccc12)C(=O)N[C@H](C(=O)NCC(=O)N[C@@H](CO)C(=O)N[C@@H](CC(C)C)C(=O)NCCOCCOCCOCCOCCOCCOCCOCCOCCOCCOCCOCCOCCC(=O)N[C@@H](CS)C(N)=O)[C@@H](C)O)C(C)C)[C@@H](C)O  selectivity ratio (PANC-1 pancreatic cancer; cell binding, phage binding, refers to: output/input phage; 10 min, 37 °C; baseline: control phage): 19 ± 6.6
CC(C)(C)C(=O)OCOP(=O)(OCOC(=O)C(C)(C)C)C1CCCN(O)C1=O (stereo not drawn)  TGI (SK-MEL-28): 1.14 µM
N[C@H](C(=O)N1CCCC1)C1CCN(c2nccc3c(-c4ncc(Cl)cc4Cl)cccc23)CC1  inhibition (human neutrophils; protein citrullination, inhibitor, flow cytometry, refers to: citrullinated histone H3; 316 nM, together with: ionomycin): 31.1% and 33.6% and 36.1% and 24.9%

Some of these lines once more:
NC(=O)N/N=C/c1ccc(OCc2ccccc2)cc1  catalase activity (OD450) (IMR-32; 200 µg/mL, 24 h; higher = more activity): 0.191 a.u.
CC(=O)NCSC[C@H](NC(=O)[C@@H]1CCCN1C(=O)[C@H](C)NC(=O)[C@@H](NC(=O)CNC(=O)[C@@H](NC(=O)[C@H](Cc1c[nH]c2ccccc12)NC(=O)[C@H](C)NC(=O)CNC(=O)[C@H](CO)NC(=O)[C@H](C)NC(=O)[C@@H]1CCCN1C(=O)[C@H](Cc1c[nH]c2ccccc12)NC(=O)[C@H](C)NC(=O)[C@H](C)NC(=O)[C@@H](N)Cc1ccc(O)cc1)[C@@H](C)O)[C@@H](C)O)C(=O)N[C@@H](CO)C(=O)N[C@@H](C)C(=O)NCC(=O)N[C@H](C(=O)NCCOCCOCCOCCOCCOCCOCCOCCOCCOCCOCCOCCOCCC(=O)N[C@@H](CS)C(N)=O)[C@@H](C)O  selectivity ratio (H1650 lung adenocarcinoma; cell binding, phage binding, refers to: output/input phage; 10 min, 37 °C; baseline: control phage): 2 ± 0.3
COc1ccccc1-c1ccncc1C(=O)Nc1nnc(OCc2ccc(Cl)cc2)s1  colony survival (HCT116 BRCA2-/-; 0.06 µM, average of 3 runs; baseline: untreated): 79.7%
